{"data": "Measurements collected from several papers", "note": "Parts stem from different laboratories: compare values within a part only. Positions count from the first letter of the parent shown."}
{"data": "Block 1", "target": "TAR DNA-binding protein 43, full length, His tag (TARDBP, Homo sapiens, UniProt Q13148, residues 1-414)", "technique": "RNA Bind-n-Seq", "form": "RNA", "matrix": "in vitro", "tested at": "20 nM", "setting": "6-mer, flanks averaged, single round", "added": "150 mM KCl", "baseline": "input library", "direction": "higher = stronger binding"}
{"Oligonucleotide": "GGUGAG", "6-mer enrichment (R)": 3.52}
{"Oligonucleotide": "CGAGAA", "6-mer enrichment (R)": 0.869}
{"Oligonucleotide": "UCUUUU", "6-mer enrichment (R)": 0.691}
{"Oligonucleotide": "ACCUUG", "6-mer enrichment (R)": 0.702}
{"Oligonucleotide": "AGCACC", "6-mer enrichment (R)": 0.704}
{"Oligonucleotide": "AUUAGA", "6-mer enrichment (R)": 0.638}
{"Oligonucleotide": "UCACCC", "6-mer enrichment (R)": 0.645}
{"Oligonucleotide": "AUAUAC", "6-mer enrichment (R)": 0.587}
{"data": "Block 2", "target": "Ras GTPase-activating protein-binding protein 1, full length (G3BP1, Homo sapiens, UniProt Q13283)", "technique": "RNA Bind-n-Seq", "form": "RNA", "matrix": "in vitro", "tested at": "200 nM", "setting": "whole 134-nt RNA, ends assumed", "added": "150 mM KCl", "baseline": "input library", "direction": "higher = stronger binding", "UniProt Q13283, sequence (whole entry, looked up)": "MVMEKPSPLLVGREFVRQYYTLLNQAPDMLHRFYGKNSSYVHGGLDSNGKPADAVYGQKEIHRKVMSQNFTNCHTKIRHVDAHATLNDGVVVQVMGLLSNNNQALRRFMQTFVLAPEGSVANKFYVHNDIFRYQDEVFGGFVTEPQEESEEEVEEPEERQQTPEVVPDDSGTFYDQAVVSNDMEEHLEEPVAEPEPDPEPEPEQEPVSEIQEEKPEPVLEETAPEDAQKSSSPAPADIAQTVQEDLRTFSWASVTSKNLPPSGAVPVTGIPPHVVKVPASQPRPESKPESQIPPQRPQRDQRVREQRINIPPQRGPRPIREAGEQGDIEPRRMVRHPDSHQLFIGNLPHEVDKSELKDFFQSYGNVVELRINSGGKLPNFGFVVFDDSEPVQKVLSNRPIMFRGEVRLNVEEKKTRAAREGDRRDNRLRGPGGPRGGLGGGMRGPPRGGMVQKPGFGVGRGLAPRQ"}
{"Oligonucleotide": "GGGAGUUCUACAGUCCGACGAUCUCAAGUCCUGUGCUACACAUCGUAUGUACCGAAUCGGGGUUGGGGUUGGUUGGGAAAGUAUUAUGUUACGCCGUUCGGAUCUGCACUUCCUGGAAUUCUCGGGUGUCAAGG", "log2 enrichment": 0.462}
{"Oligonucleotide": "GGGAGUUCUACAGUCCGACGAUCAAGUCCUGUGCUACACAUCGUAUGUACCGAAUCGGGGCCCGGCCCGGGGCCCGGGGAAAGUAUUAUGUUACGCCGUUCGGAUCUGCACUUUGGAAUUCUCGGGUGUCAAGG", "log2 enrichment": -1.35}
{"Oligonucleotide": "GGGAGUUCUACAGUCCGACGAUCUAACUUUAGAGCAGGAUCUGAUGGAUAUGGCAGUGGACGUGGAUUUGGGGAUGGCUAUAAUGGGUAUGGAGGAGGACCUGGAGGUGGCAAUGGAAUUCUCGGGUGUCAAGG", "log2 enrichment": 0.514}
{"Oligonucleotide": "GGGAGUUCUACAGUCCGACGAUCAGUCCUGUGCUACACAUCGUAUGUACCGAAUCGGGAAAAAAAGGGAGGGAAAAAGGGAAAGUAUUAUGUUACGCCGUUCGGAUCUGCACUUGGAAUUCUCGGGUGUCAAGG", "log2 enrichment": -0.208}
{"Oligonucleotide": "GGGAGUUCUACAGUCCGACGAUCUGGGCUGGAUGGCUCAGUUCCCCCAGACCUGGACUGGAAGGGCCAGCCACCUGCACCUCCUAAAAAGGGACUGCUGCAGAGACUCUUCAGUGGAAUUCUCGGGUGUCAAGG", "log2 enrichment": -0.727}
{"Oligonucleotide": "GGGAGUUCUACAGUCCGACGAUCUAACUUUAGAGGAGGAUCUGAUGGAUAUGGCAGUGGACGUGGAUUUGGGGAUGGCUAUAAUGGGUAUGGAGGAGGACCUGAAGGUGGCAAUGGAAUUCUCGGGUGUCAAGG", "log2 enrichment": 0.0947}
{"Oligonucleotide": "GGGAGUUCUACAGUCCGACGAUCUGGCCCUGGUGGCAUGAGGGGAGGAAGAGGUGGCCUCAUGGAUCGUGGUGGUCCCGGUGGAAUGUUCAGAGGUGGCCGUGGUGGAGACAGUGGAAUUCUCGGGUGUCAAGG", "log2 enrichment": 0.362}
{"Oligonucleotide": "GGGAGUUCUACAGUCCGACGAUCCUCAAGUCCUGUGCUACACAUCGUAUGUACCGAAUCGGGGUGGGGUGGUGGGGAAAGUAUUAUGUUACGCCGUUCGGAUCUGCACUUCCAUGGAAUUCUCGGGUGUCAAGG", "log2 enrichment": 0.889}
{"data": "Block 3", "target": "CCNE2, cyclin fold, Cln2 fusion (human)", "technique": "yeast growth competition, sequencing", "matrix": "yeast", "setting": "weak parent motif", "baseline": "not given", "direction": "higher = stronger binding", "starting sequence": "FOXM1 docking peptide (human); PHLARPIKVESPP; partner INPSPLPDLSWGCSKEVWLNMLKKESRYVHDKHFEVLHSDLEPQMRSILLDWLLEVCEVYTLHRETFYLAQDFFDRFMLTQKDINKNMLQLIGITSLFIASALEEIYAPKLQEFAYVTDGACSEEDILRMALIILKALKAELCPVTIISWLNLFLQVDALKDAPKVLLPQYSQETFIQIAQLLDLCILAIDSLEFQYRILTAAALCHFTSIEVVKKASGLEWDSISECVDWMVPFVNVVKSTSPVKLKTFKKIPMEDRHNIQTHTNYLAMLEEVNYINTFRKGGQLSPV"}
{"Change": "P6A", "normalised enrichment score": -0.447}
{"Change": "L3A", "normalised enrichment score": 0.277}
{"Change": "R5A", "normalised enrichment score": -0.564}
{"Change": "H2A", "normalised enrichment score": -0.426}
{"Change": "P1A", "normalised enrichment score": -0.484}
{"Change": "S11A", "normalised enrichment score": -0.0922}
{"data": "Single results of other studies"}
{"Compound": "O=C(NCCc1ccccc1)N1Cc2c(sc3c2CCCC3)-n2cccc2C1c1cccs1 (centres unmarked)", "species": "human", "matrix": "microsomes or S9", "tested at": "2 µM", "time": "0.5 h", "quantity": "remaining compound", "result": "2.21%"}
